Assay results gathered from unrelated publications.
Parts stem from different laboratories: compare values within a part only.

Block 1
Target: Sal-like protein 4, full length isoform B (SALL4, Homo sapiens, UniProt Q9UJQ4-2, residues 1-616)
Technique: universal PBM
Molecule type: double-stranded DNA, one strand shown
Medium: in vitro
Tested at: not given
Setting: 8-mer, flanks averaged, mean of replicates
Direction: higher = stronger binding
| Oligonucleotide | E-score |
| --- | --- |
| CCAACCGC | -0.265 |
| AACTACGT | 0.0999 |
| GCCGGAAC | -0.219 |
| GGCAGGCC | -0.364 |
| GGCGAATA | 0.0261 |
| CCATGACC | -0.213 |
| ATCGCCAA | -0.0686 |
| CTGATGAC | -0.131 |
| CTCGATAC | 0.114 |
| GTACAATA | 0.378 |
| CTAAGAAA | 0.0427 |
| AGTTCGAT | 0.171 |
| ACAAATTC | 0.221 |
| AATAACGT | 0.3 |
| AGCGTATG | -0.0344 |
| CTCGGGGA | -0.263 |
| ATTTTGCC | 0.151 |
| GTCTACGA | -0.12 |
| ACGACTTA | -0.00067 |
| ATGGACAG | 0.0423 |
| CGGCAAAA | -0.053 |
| GTGCTTGA | -0.0244 |
| TCCCGAAA | 0.118 |
| GATCCGCA | -0.311 |

Block 2
Target: RNA binding protein fox-1 homolog 2, RRM domain, GST-SBP tag (RBFOX2, Homo sapiens, UniProt O43251-10, residues 100-194)
Technique: RNA Bind-n-Seq
Molecule type: RNA
Medium: in vitro
Tested at: 365 nM
Setting: natural RNA segment, single round, ends assumed
Baseline: no-protein control
Direction: higher = stronger binding
All sequences stand within: GGGAGUUCUACAGUCCGACGAUC … UGGAAUUCUCGGGUGCCAA
Construct (chain): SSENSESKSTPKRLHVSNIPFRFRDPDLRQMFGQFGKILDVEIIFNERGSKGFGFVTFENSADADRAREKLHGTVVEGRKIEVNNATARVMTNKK
| Oligonucleotide | RBNS enrichment (R) |
| --- | --- |
| UAAAGGCACAUGUUGGAACACAUCCAGUCCUGCUGACCUGUAGAUAAUUAUUUUUCUCUAAAUGAACUGUACAUUUAUCUUAAAUAAAAAUUUAUUUUUGAGAUAACUGU | 0.382 |
| CUCACAACAGCCUUCUUACCUCGGGUGAGAGUCAUGAGCACCUUACCAGGCAGGGAGCUUCCCCAGGAUAGUGUGGUGGAGUCAGGACUCACUCCAUCCUGCACUUUACC | 0.44 |
| UAAUUACAAGUCCACAUCAUGAGACAAACUGAAGUAACUUAGGCAAAACAGGUAAAACAGUCAUAGUUUUGUGAUUAUAAAUGAGAUGAAUGUUCACCCUUCCAAGAUCU | 0.199 |
| GAAAUCCCAUGUACAAAUAAAAUUCUAUGUCUGAAAGAUUCUUCUGUUUGAACUUAAGAAGAAUAAACUACACUUUACUUUAUGUGCAGAAAUGAGACAUUCUGACAAUA | 1.86 |
| GGACUGCAAAUGCCAGGCUUUCCUUGGCCAUGUAUCUAAAAUCCCAUAAACUCCUCCCUUUGGGAGGCUGGCAAAAAAGGGGCUGUGCUCUCCCUGGUUAAGCAGUUUGU | 0.773 |
| GUGGCCUUCCAAAAUAGGUAGUGUUUGCCUAUGUGGAAACAACAGCAAACUAACACCAAGUGCCAGAGUCCUGGAUGUGCAAUUGGUUUAAGUGUUCAUGUUCUAGUGAA | 0.314 |
| GCUAUUAUUAGGCUUGCUUGUUACACACACAGGUCUAAGCCUAGUAUGUCAAUAAAGCAAAUACUUACUGUUUUGUUUCUAUUAAUGAUUCCCAAACCUUGUUGCAAGUU | 0.345 |
| UAAGUAGUUUUCAUGUUUUCAAUAUGCAGUUUUGAAAAUGAGGAUUCACCUAGACUUUUUUAGAUUUACUACUAGGAAACCUUCCUCAUAUGAAUAACCAUUUAUAUGUG | 0.567 |
| AGCUGGGCAUGGGGCUGACGGAGAUGACCAAGCCUUGGUCUGCUCUCUAGCAGCUUCCACAGACUUGGCUCGUGGCCUUCCUUAUAUCCACUGGGAACAAACAGCCUCGC | 0.183 |
| CGGCUUUCCAGUGCGGAGAGUCGAGAUGCUCCCUGCAGCCCAGGCCCCGGGCACCUCCUGCAACCAUCUCUGGGCUCAGCACCUGAGGCGGGUUUCCUGGGUCCCCUCUC | 0.364 |
| UGUCAGUCUCAUGACAGUUUGUUGGUUGUGCCAAACACUUUAUUUGGGAAAGGAAAGCCCAGAUUUGAAUGGGUCUUUCCCCUGGGCCUUAUCCUAUAGAGGCAUUUGUA | 0.312 |
| AGGUCGGCAGACAUGCCAACCUUGGGCUAUUUGAGCUGGAGAAGCUAUGUGAUGCUAGCCGGUGGCUUUCUGGGCUAGGCCCCAGUUUGAGGCUCCCCUGGGAACUAGAG | 0.615 |

Block 3
Target: Interferon regulatory factor 5, full length, phosphomimetic (IRF5, Homo sapiens, UniProt Q13568-2, residues 1-514, S451D/S453D/S456D/S462D)
Technique: protein-binding microarray
Molecule type: double-stranded DNA, one strand shown
Medium: in vitro
Tested at: 940 nM top
Setting: 60-bp whole probe
With: salmon DNA 0.4 mg/ml
Baseline: random background probes
Direction: higher = stronger binding
All sequences stand within: GCCTAGCAC … GTCTTGATTCGCTTGACGCTGCTG
| Oligonucleotide | fitted relative affinity [z-score] |
| --- | --- |
| TTAGATTTCTGGTTTCGATTAGTGCTA | 8.13 |
| TTAGATTTCAGTTCCGAGTAGTGCTAG | 1.34 |
| TTAGAACTGAGTTTCGATTGGTGCTAG | 7.63 |
| TTAGGACTGTGGACTGGGTTAGTGCTA | -0.438 |
| GACGAACGGGGGTTTCGAGACGTGCTA | 4.04 |
| GTCGGTTTCGGGTATCGGGACGTGCTA | 11.2 |
| GACGGAATGGACTTTCGGGACGTGCTA | 0.529 |
| GACGGTTTCGGGCTGGGGACGTGCTAG | 7.16 |
| GTCGGTCTCGGACTGGGGACGTGCTAG | 1.34 |
| GCCGGACTGGGTCTCGGGACGTGCTAG | -0.362 |
| GACGATCTCAGTTTCGAGCCGTGCTAG | 3.23 |
| TTAGATATCTGACTGGATTAGTGCTAG | -0.165 |
| TTAGGTATCGACTTTCGGTCAGTGCTA | 6.4 |
| GACGGAATGCTTCTCCTGACGTGCTAG | -0.388 |
| GACGGTTTCGGGACTGGTGACGTGCTA | 6.45 |
| ATGCCTTTCGTCAAGAAGACGTGCTAG | 0.379 |
| GACGGTTTCCTTATCTTGACGTGCTAG | 1.39 |
| TTAGGTAGCGGGTATCGGTTAGTGCTA | 2.87 |
| TCATTTTTTTTTTTGGAACTGTGCTAG | 1.12 |
| GACGGTATCGACACTGAGGACGTGCTA | 3.96 |
| GCCGGTTTCCTACTGCTGACGTGCTAG | 0.709 |
| TTAGAACTGAGTTTCGATTCGTGCTAG | 7.5 |
| TGCCCTCTCCATACTTCCCAGTGCTAG | 1.13 |
| GACGATATCATTATCGAGACGTGCTAG | -0.0666 |

Block 4
Target: Histone acetyltransferase KAT6A, both winged helices, GST fusion (KAT6A, Homo sapiens, UniProt Q92794, residues 1-181)
Technique: protein binding microarray
Molecule type: double-stranded DNA, one strand shown
Medium: in vitro
Tested at: not given
Setting: 8-mer, flanks averaged, mean of 2 arrays, mostly near background
Baseline: not given
Direction: higher = stronger binding
Target sequence (chain): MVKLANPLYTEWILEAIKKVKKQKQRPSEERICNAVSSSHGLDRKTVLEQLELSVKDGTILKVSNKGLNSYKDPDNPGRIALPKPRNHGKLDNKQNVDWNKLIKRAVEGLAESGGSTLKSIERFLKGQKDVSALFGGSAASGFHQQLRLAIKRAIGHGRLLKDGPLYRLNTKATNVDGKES
| Oligonucleotide | E-score |
| --- | --- |
| ATCAGCTC | -0.0909 |
| ATTCACCA | -0.177 |
| ATAAACTC | 0.0063 |
| AATCTCAT | -0.156 |
| CATTCTCG | -0.0212 |
| ACAAGGAG | 0.0752 |
| CGGTATGC | 0.189 |
| AGCCCGAA | -0.0608 |
| GCACGTCC | 0.0455 |
| GGAATACC | 0.11 |
| ATTCCCCC | -0.149 |
| CCGTTCGC | 0.22 |
| AAAGCCAC | -0.206 |
| AGAGTATG | -0.112 |
| ACCTGGAG | -0.181 |
| AATGTGTC | -0.0309 |
| AAGGAGAC | -0.0685 |
| AGGCCCAT | -0.126 |
| AAGCTATT | -0.111 |
| GGGAGAAC | -0.097 |
| ACCGTTGA | 0.0813 |
| CAGACTCC | -0.0782 |
| AGTTTCAG | 0.0323 |
| ACGGCTAT | 0.227 |
| AACGTCTC | -0.113 |

Some of these lines once more (block 3):
| Oligonucleotide | fitted relative affinity [z-score] |
| --- | --- |
| GTCGGTTTCGGGTATCGGGACGTGCTA | 11.2 |
| GACGGAATGGACTTTCGGGACGTGCTA | 0.529 |
| GACGGTTTCGGGCTGGGGACGTGCTAG | 7.16 |
| GTCGGTCTCGGACTGGGGACGTGCTAG | 1.34 |
| GCCGGACTGGGTCTCGGGACGTGCTAG | -0.362 |
| GACGATCTCAGTTTCGAGCCGTGCTAG | 3.23 |
| TTAGATATCTGACTGGATTAGTGCTAG | -0.165 |
| TTAGGTATCGACTTTCGGTCAGTGCTA | 6.4 |
